Experimental data from different studies.
Compare with care: the assays were run in different laboratories. Several values in a cell are separate wells, animals, samples, runs or records. ± gives the spread as reported.

| Structure (SMILES) | cell line | assay | system | setting | how to read | measurement | value |
| --- | --- | --- | --- | --- | --- | --- | --- |
| N[C@H](C(=O)N1CCCC1)C1CCN(c2nccc3c(-c4ncc(Cl)cc4Cl)cccc23)CC1 | human neutrophils | protein citrullination, inhibitor, flow cytometry, measured: citrullinated proteins |  | 3.16 µM, with: ionomycin |  | inhibition | 70.2% and 70.9% and 68.8% and 71.8% |
| CC(C)[C@H](NC(=O)[C@H](CCCNC(=N)N)NC(=O)[C@@H]1CCCN1C(=O)[C@@H](NC(=O)[C@H](C)NC(=O)[C@H](Cc1ccc(O)cc1)NC(=O)[C@H](CCC(N)=O)NC(=O)[C@H](CCCCN)NC(=O)[C@H](CCCNC(=N)N)NC(=O)[C@@H]1CCCN1C(=O)[C@H](CCC(=O)O)NC(=O)[C@@H](NC(=O)[C@H](C)N)[C@@H](C)O)[C@@H](C)O)C(=O)N[C@@H](Cc1ccccc1)C(=O)N[C@@H](Cc1c[nH]c2ccccc12)C(=O)N[C@H](C(=O)N[C@@H](CC(=O)O)C(=O)N[C@@H](C)C(=O)N1CCC[C@H]1C(=O)NCC(=O)NCCOCCOCCOCCOCCOCCOCCOCCOCCOCCOCCOCCOCCC(=O)N[C@@H](CS)C(N)=O)[C@@H](C)O | HCC78 | phage binding |  |  | reference: targeting over control phage | selectivity ratio | 1.6 ± 0.8 |
| C#CCNC(=O)c1ccc(S(=O)(=O)N[C@@H](CCCCNC(C)=S)C(=O)N[C@@H](CCCNC(=N)N)C(=O)N[C@@H](CC2CCCCC2)C(=O)N[C@H](CCCCN)C(=O)N[C@@H](CC2CCCCC2)C(=O)N[C@H](CCCNC(=N)N)C(=O)N[C@@H](CC2CCCCC2)C(N)=O)cc1 | Jurkat | cell growth or viability, MTT |  | 72 h |  | EC50 | 42.5 µM |
| O=C(C[Se]C(=O)c1cccs1)Nc1cccc(C(F)(F)F)c1 | NCI60 renal subpanel | cytotoxicity, inhibitor |  | five-dose |  | CC50 | 6.43 µM |
| COc1ccccc1-c1ccncc1C(=O)Nc1nnc(OCc2ccc(Cl)cc2)s1 | HCT116 BRCA2-/- |  |  | 0.06 µM, average of 3 runs | reference: untreated | colony survival | 79.7% |
| CCOC(=O)C1(Cc2ccccc2)Oc2cc(F)ccc2N(Cc2ccccc2)C1=O (stereo not drawn) | HEK293T | cytotoxicity, CCK-8 |  | 50 µM, 72 h |  | inhibition | 0.28 ± 0.13% |
| CC(C)C[C@H](NC(=O)[C@H](CC(=O)O)NC(=O)CNC(=O)[C@@H](N)CCCNC(=N)N)C(=O)N[C@@H](C)C(=O)N[C@H](C(=O)N[C@@H](CC(C)C)C(=O)N[C@@H](CCCNC(=N)N)C(=O)N[C@@H](CCC(N)=O)C(=O)N[C@@H](CC(C)C)C(=O)N[C@@H](C)C(=O)N[C@@H](CCC(N)=O)C(=O)N[C@@H](CCC(=O)O)C(=O)N[C@@H](CC(=O)O)C(=O)NCC(=O)N[C@H](C(=O)N[C@H](C(=O)NCC(=O)N[C@H](C(=O)N[C@@H](CCCNC(=N)N)C(=O)NCCOCCOCCOCCOCCOCCOCCOCCOCCOCCOCCOCCOCCC(=O)N[C@@H](CS)C(N)=O)C(C)C)C(C)C)C(C)C)[C@@H](C)O | H2347 lung adenocarcinoma | cell binding, phage binding, measured: output/input phage |  | 10 min, 37 °C | reference: control phage | selectivity ratio | 38 ± 9.2 |
| CC(C)CC(O)(CC(C)C)c1cn(C(=O)N2CCCC2)nn1 | mouse T-cells | SILAC proteomics, measured: Paip2b |  | 1 nM, 6 h, single peptides, unit not given | reference: DMSO | protein level | 0.97 and 0.87 |
| O=C(C[Se]C(=O)c1ccccc1)Nc1cccc(C(F)(F)F)c1 | NCI60 renal subpanel | cytotoxicity, inhibitor |  | five-dose |  | CC50 | 13 µM |
| Cc1cccc(-c2cccc(C)n2)n1.Cc1cccc(-c2cccc(C)n2)n1.F[P-](F)(F)(F)(F)F.F[P-](F)(F)(F)(F)F.[Ru+2].c1ccc2c(-c3nc4c5cccnc5c5ncccc5c4[nH]3)cccc2c1 | SK-MEL-28 |  |  | 1% O2, with: green light 523 nm, 100 J/cm2 | reference: dark over light EC50 | phototoxicity index | 2 |
| Cc1cc(Oc2nc(N3CC[C@@H](c4ccncc4)C3)ncc2F)[nH]n1 | Panc1005 | cell proliferation | pancreas cancer |  |  | IC50 | 53.7 µM |
| CC(C)(C)C(=O)OCOP(=O)(OCOC(=O)C(C)(C)C)C1CCCN(O)C1=O (stereo not drawn) | PC-3 |  |  |  |  | log TGI | > -4 log M |
| O=C(C[Se]C(=O)c1ccco1)Nc1cccc(C(F)(F)F)c1 | NCI60 prostate subpanel (PC-3, DU-145) | cytotoxicity, inhibitor |  | five-dose |  | CC50 | 53.8 µM |
| [Cl-].[Cl-].[Ru+2].c1ccc(-c2ccccn2)nc1.c1ccc(-c2ccccn2)nc1.c1ccc2cc3nc4c5cccnc5c5ncccc5c4nc3cc2c1 | SK-MEL-28 | cell viability |  | 1% O2, with: green light 523 nm, 100 J/cm2 |  | EC50 | 179 ± 12 µM |
| CC(=O)Oc1ccccc1C(=O)[Se]CC(=O)Nc1cccc(C(F)(F)F)c1 | NCI60 prostate subpanel (PC-3, DU-145) | cytotoxicity, inhibitor |  | five-dose |  | CC50 | 54.6 µM |
| C#CCN1C(=O)C(CC#C)(C(=O)OCC)Oc2ccccc21 (stereo not drawn) | HEK293T | cytotoxicity, CCK-8 |  | 12.5 µM, 72 h |  | inhibition | 0.49 ± 0.33% |
| CNC(=S)N/N=C/c1ccc(OCc2ccccc2)cc1 | IMR-32 | measured: GPX3 |  | 300 µg/mL, 24 h | higher = more activity | glutathione peroxidase activity (OD450) | 0.083 a.u. |
| O=c1n(CCNCCOS(=O)(=O)c2ccccc2)c(=O)n(S(=O)(=O)c2ccccc2)c(=O)n1S(=O)(=O)c1ccccc1 | A549 | cell growth or viability, MTT |  | 100 µg/mL, 72 h |  | viability | 31.2% |
| O=C(C[Se]C(=O)c1ccc2ccccc2n1)Nc1cccc(C(F)(F)F)c1 | NCI60 renal subpanel | cytotoxicity, inhibitor |  | five-dose |  | CC50 | 6.77 µM |
| CC(=O)NCSC[C@H](NC(=O)[C@@H]1CCCN1C(=O)[C@H](C)NC(=O)[C@@H](NC(=O)CNC(=O)[C@@H](NC(=O)[C@H](Cc1c[nH]c2ccccc12)NC(=O)[C@H](C)NC(=O)CNC(=O)[C@H](CO)NC(=O)[C@H](C)NC(=O)[C@@H]1CCCN1C(=O)[C@H](Cc1c[nH]c2ccccc12)NC(=O)[C@H](C)NC(=O)[C@H](C)NC(=O)[C@@H](N)Cc1ccc(O)cc1)[C@@H](C)O)[C@@H](C)O)C(=O)N[C@@H](CO)C(=O)N[C@@H](C)C(=O)NCC(=O)N[C@H](C(=O)NCCOCCOCCOCCOCCOCCOCCOCCOCCOCCOCCOCCOCCC(=O)N[C@@H](CS)C(N)=O)[C@@H](C)O | HCC15 | phage binding |  |  | reference: targeting over control phage | selectivity ratio | 16 ± 1.4 |
| CC(C)Cc1ccc(C(C)C(=O)[Se]CC(=O)Nc2cccc(C(F)(F)F)c2)cc1 (stereo not drawn) | NCI60 prostate subpanel (PC-3, DU-145) | cytotoxicity, inhibitor |  | five-dose |  | CC50 | 7.91 µM |
| CSCC[C@H](NC(=O)[C@@H](NC(=O)[C@H](CCC(N)=O)NC(=O)[C@H](CO)NC(=O)[C@@H](N)C(C)C)[C@@H](C)O)C(=O)N[C@@H](CCCNC(=N)N)C(=O)N[C@@H](CCC(N)=O)C(=O)N[C@H](C(=O)N[C@@H](C)C(=O)N[C@H](C(=O)N1CCC[C@H]1C(=O)N[C@@H](CC(C)C)C(=O)N[C@@H](CC(C)C)C(=O)N[C@@H](Cc1c[nH]c2ccccc12)C(=O)N[C@@H](Cc1ccccc1)C(=O)N[C@@H](Cc1c[nH]c2ccccc12)C(=O)N[C@H](C(=O)NCC(=O)N[C@@H](CO)C(=O)N[C@@H](CC(C)C)C(=O)NCCOCCOCCOCCOCCOCCOCCOCCOCCOCCOCCOCCOCCC(=O)N[C@@H](CS)C(N)=O)[C@@H](C)O)C(C)C)[C@@H](C)O | T47D breast cancer | cell binding, phage binding, measured: output/input phage |  | 10 min, 37 °C | reference: control phage | selectivity ratio | 10 ± 2.2 |
| O=C(O)c1ccc(-c2nc(-c3ccccc3Cl)c3sccn23)cc1 | human CD34+ hematopoietic stem cells | megakaryocyte differentiation, flow cytometry, measured: CD61 |  | 10 µM, day 10, with: TPO | reference: control | fold change | 1.02 fold and 1.01 fold |
| O=C(C[Se]C(=O)c1ccc2ccccc2c1)Nc1cccc(C(F)(F)F)c1 | NCI60 renal subpanel | cytotoxicity, inhibitor |  | five-dose |  | CC50 | 6.76 µM |

Some of these lines once more:
| Structure (SMILES) | cell line | assay | system | setting | how to read | measurement | value |
| --- | --- | --- | --- | --- | --- | --- | --- |
| O=c1n(CCNCCOS(=O)(=O)c2ccccc2)c(=O)n(S(=O)(=O)c2ccccc2)c(=O)n1S(=O)(=O)c1ccccc1 | A549 | cell growth or viability, MTT |  | 100 µg/mL, 72 h |  | viability | 31.2% |
| O=C(C[Se]C(=O)c1ccc2ccccc2n1)Nc1cccc(C(F)(F)F)c1 | NCI60 renal subpanel | cytotoxicity, inhibitor |  | five-dose |  | CC50 | 6.77 µM |
| CC(=O)NCSC[C@H](NC(=O)[C@@H]1CCCN1C(=O)[C@H](C)NC(=O)[C@@H](NC(=O)CNC(=O)[C@@H](NC(=O)[C@H](Cc1c[nH]c2ccccc12)NC(=O)[C@H](C)NC(=O)CNC(=O)[C@H](CO)NC(=O)[C@H](C)NC(=O)[C@@H]1CCCN1C(=O)[C@H](Cc1c[nH]c2ccccc12)NC(=O)[C@H](C)NC(=O)[C@H](C)NC(=O)[C@@H](N)Cc1ccc(O)cc1)[C@@H](C)O)[C@@H](C)O)C(=O)N[C@@H](CO)C(=O)N[C@@H](C)C(=O)NCC(=O)N[C@H](C(=O)NCCOCCOCCOCCOCCOCCOCCOCCOCCOCCOCCOCCOCCC(=O)N[C@@H](CS)C(N)=O)[C@@H](C)O | HCC15 | phage binding |  |  | reference: targeting over control phage | selectivity ratio | 16 ± 1.4 |
| CC(C)Cc1ccc(C(C)C(=O)[Se]CC(=O)Nc2cccc(C(F)(F)F)c2)cc1 (stereo not drawn) | NCI60 prostate subpanel (PC-3, DU-145) | cytotoxicity, inhibitor |  | five-dose |  | CC50 | 7.91 µM |
